Assay results gathered from unrelated publications.
Parts stem from different laboratories: compare values within a part only.

Series 1
Target: Centromere-binding protein 1, full length, N-terminal tag (CBF1, Saccharomyces cerevisiae, UniProt P17106, residues 1-351)
Sequence of UniProt P17106 (whole entry, looked up): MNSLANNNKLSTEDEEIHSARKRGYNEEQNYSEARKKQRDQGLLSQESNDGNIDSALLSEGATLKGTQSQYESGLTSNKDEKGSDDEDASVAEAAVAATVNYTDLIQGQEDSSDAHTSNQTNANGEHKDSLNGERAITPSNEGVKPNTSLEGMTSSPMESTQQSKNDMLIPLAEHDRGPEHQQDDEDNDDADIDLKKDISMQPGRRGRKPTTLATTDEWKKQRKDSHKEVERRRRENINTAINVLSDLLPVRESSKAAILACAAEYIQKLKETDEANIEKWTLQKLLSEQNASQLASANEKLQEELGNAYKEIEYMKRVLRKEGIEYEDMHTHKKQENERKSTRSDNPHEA
Method: protein-binding microarray
Form: double-stranded DNA, one strand shown
Matrix: in vitro
Concentration: 0.8 µM
Notes: whole 60-bp probe, no competitor
Reading: higher = stronger binding
Endpoint: fluorescence intensity
All sequences stand within: … GTCTTGATTCGCTTGACGCTGCTG
CTAATGAATCTAATAAACGTGGCTTACGTAACATTC: 548 a.u.
CTAACTACACAGTGTTCCGTGAGACCGTTACAGTTC: 541 a.u.
TGTACGAAGCTATTGCACGTTCTTATAGTAGTTAGG: 595 a.u.
CTATCCTTTCACGTGATGCGCTGGGATGTTATCTTC: 16400 a.u.
CTAGATGAGAATACTAACACCACGAACTCAAATTTC: 522 a.u.
GAATATTGTTTTCACCATGTGAACAAAGCTGTATAG: 716 a.u.
GAACTTCTAGTCGAGCACATGGTCAAAATAGTCTAG: 1490 a.u.
TGTACGAAGCTATACAACATCAGTATAGTAGTTAGG: 557 a.u.
CTAAGCCAGATCCCGCTCGTGGGCGTGTTCATTTTC: 587 a.u.
GAATCCTTTTTGCTGCGCGTGGAAAAGCGTGTCTAG: 536 a.u.
GAATGGTTATACGCGCACATGTATATAAGGAGATAG: 876 a.u.
GAACAGACTCTCCTGCACGTTCCATACTATGTTTAG: 607 a.u.
GAAGATTATGGGCCGCTCGTGACAGTAAAGGAATAG: 1310 a.u.
TGTACGAAGCTATTACACGAGATTATAGTAGTTAGG: 577 a.u.
CTAGTTTTTAATAATTGTGATCACAATATAGCTTTC: 1020 a.u.
CCTAACTACTATAGCATCATGACATAGCTTCGTACA: 534 a.u.
CCTAACTACTATAGTCACGTGCGATAGCTTCGTACA: 14100 a.u.
CTAGCGTTTTTCTGGGACGTGCTGACAAACGAGTTC: 583 a.u.
TGTACGAAGCTATAGCACGACCATATAGTAGTTAGG: 516 a.u.
CTATAACGTCACACTCACATGAGTTTTCCTGACTTC: 617 a.u.
TGTACGAAGCTATATTGCGTGTATATAGTAGTTAGG: 515 a.u.
GAAAGACTTCTCCATTTTCACGTGCTAAAAAAGTAG: 8240 a.u.
CTATTCAAGCAAGTACACGTGCGCAAGTTGTACTTC: 5470 a.u.
GAAGTTATTGCAATCAACGTGAGCCTTAACCAATAG: 583 a.u.
GAATTTCGACTTTCTCACGCTGATGATGATGACTAG: 581 a.u.

Series 2
Target: RNA binding protein fox-1 homolog 2, RRM domain, GST-SBP tag (RBFOX2, Homo sapiens, UniProt O43251-10, residues 100-194)
Method: RNA Bind-n-Seq
Form: RNA
Matrix: in vitro
Concentration: 365 nM
Notes: natural RNA segment, single round, ends assumed
Relative to: no-protein control
Reading: higher = stronger binding
Endpoint: RBNS enrichment (R)
All sequences stand within: GGGAGUUCUACAGUCCGACGAUC … UGGAAUUCUCGGGUGCCAA
CAGGGUUAGCGCCCAUGAAAGGGGACCGAGUGUAUGACAAUCUGCGUUGAUCAUGGACUACUAAAAUGCCUUCACACAGGAGGCUUUGACUUGCACAAUUCUUUGGGAAG: 0.373
AGAAGUCCCACAUGGAAGACGCUGUUCCAGGAUCUUUACCUUUCCAAAGGAUGCAUACAGGAUAUUUUGGAGCAUCAUCCUCGAAGAAAAGUCAGUUAAACCAUUUAGUU: 0.709
UCUGUAUAUAGGGCACAGGUGAAGACAUUGUCCAAAGCUUAUUUAUUUAUCUAUUUAUUUACCCUGGGCGAGUAACCACACCAGUGGGGGGGAAAAAACUAAAAUGUGUG: 0.618
GGCCUGCUAACAGCCCCCCGAUCCGUCAGGGGGAAUAACUCUGGGAGUCACUGGAUAUCAGUGGAGACUACUGUGGUCUUCCCACGCAUGGGCCGUGGCUUUCAGUUCUC: 0.737
UCAGUCUGCAGUAUUGAGUUGUUUAAAGUAUAUGUGCAGUCUUGCUUACAAGGAGGGGUUACCAUGUAUCACACCUAAUCUUCCCAAUGUUUGGGAUAUUAAAACACAAA: 0.497
AUAGUUGAUGAGAACUAGACUUAUGACUGUAGUUUACUAGAGUUUAGUUUUCAGUUGCUGAAGUAGCUCAUUUUCUCUUACUAAUGUUUGGUUCCUCAGGGAAGAAUCUC: 0.734
GGAUAGGGACGGGUGCUUUCCUCUCUAGUUGUAUCUGAGCGGAAGGAACAUCUUUCUGUAGCUAAUAAAAACUAAAAGGGAAGAGGAAGCAGAAGGGAAGGAGUGUGGCG: 0.681
UAUCUGUUUUGUAAGUCUGCAUUUUUGUAUAUCGGAUUUACCUUAAGCUUCUCUAGUGAGGCAUUCUGAGCAGUGGUGAUCACAUGCCAGAUCGCCCUGCCUAUCCACAA: 0.643
UUUAUACUCUCAGAUAGUUUGCUCCACAAAUUUUCAUUUCGUGAUUCUGUAUAUAUUGCCCUGAACUUUCUGUGAUCACAGAUUAAAAAUAUCUUUUGGUUCCAAAUAGA: 1.17
UCCUGGAACCAAGCAUCCACGGAUACUGAGGGGUGACAUUUCAUGAAGUGUAGAUCAUUGUAUUCAGAGAUUGUAAAUGAAAAAAAUAUAGAAACUAUUUAGUUUUGGUA: 0.429
GGCAGCUGUGAGAACCCGGCUCGUUCCGACCUGCGGAUAGUCAAGCGAUCAGAGUAUGUCUUGUGUGUGAGAGUGAGCCUUACAAUCAUGUCCACUGAAGCCACUGGCAG: 0.868
AAAAGGAUGGAAUACCAAGGUCUUUUUAUUCCUCGUGCCCAGUUAAUCUUGCUUUUGUUGGUCAGAAUAGAGGGGUCAGGUUCUUAAUCUCUACACACCAACCCUUUCUU: 0.414

Series 3
Target: RING finger protein unkempt homolog, zinc fingers 1-6, GST-SBP tag (UNK, Homo sapiens, UniProt Q9C0B0, residues 30-357)
Sequence of UniProt Q9C0B0 (30-357, looked up): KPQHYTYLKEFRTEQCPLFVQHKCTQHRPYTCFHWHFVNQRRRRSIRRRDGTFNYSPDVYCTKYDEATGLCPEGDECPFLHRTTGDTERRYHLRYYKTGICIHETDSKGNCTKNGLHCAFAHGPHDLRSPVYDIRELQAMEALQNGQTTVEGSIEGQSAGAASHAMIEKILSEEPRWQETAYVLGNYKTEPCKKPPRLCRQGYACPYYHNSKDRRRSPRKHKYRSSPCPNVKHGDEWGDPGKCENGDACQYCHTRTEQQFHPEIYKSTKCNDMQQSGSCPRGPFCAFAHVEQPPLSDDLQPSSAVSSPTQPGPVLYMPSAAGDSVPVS
Method: RNA Bind-n-Seq
Form: RNA
Matrix: in vitro
Concentration: not given
Notes: RNA with constant flanks, human and mouse sites, ends assumed
Relative to: input RNA pool
Reading: higher = stronger binding
Endpoint: bound/input enrichment
All sequences stand within: GGGAGUUCUACAGUCCGACGAUC … CAACAGAGGAUUGAGCAUCA
CUUGCCCAGCUAUGGCCCCCUCUCAUUCACAAAGUGCCCCCUCCAUGUCCCUGGACCCUUAAGAUAUCCCCUUGGCACCCUGGUCAGAGACUCUGUGUCUGACUCAGGUGGUCCCUGCAG: 0.39 ratio
CUCCCUCAACCAAUUUAUAGACACAUAGCAUCUUUCCUGUCAGUCUUCAAACUAGUAUUAAUAGGCUUAAUAAUUGUUGGCAAAGAUCCUUUUGCUUUUUUCGGCAUGCAAGCUCCUAGC: 116 ratio
CAGCUGCCAAAGCUGCCAAAGCCUCAAAUGCUUCUACACCUACCAAGGGGAACACAGAAACUGGUGCCAGUGUCUCACAGACAAACCAUGUGAAGGAAGUCAAAAAACUUAAAACUGAGC: 0.242 ratio
AAGCCUUUCUCUCUCACUUCCCGAGGUGCCUUGUUUCAGGAGAUCUCCAGCAAUGACAUUAGUUCCAAACUCACUCUUCUUACACUUCACUUCCCCAGACUACGGAUUCUCUGGUGCCCC: 1.02 ratio
AAAACUUUGCAAGAAGAGAUUGAUGCCUUAGAGUCCAGAGUGGCGUCCAUCCAGCGGGUGUUAGCCGACCUGAAGGUGCAGCUAUACGCGAAAUUUGGCAGCAACAUAAACCUCGAGGCA: 0.136 ratio
GAGUACAUUGUCUACGACAUUGCUCAGGUGAAUCUCAAAUACCUGCUGAAACUCAAGUUCAAUUUUAAGACAUCCCUGUGGUAAAGUGCGAGGGGUGGGCUGUGCCCAGCACCCAGGGCC: 0.212 ratio
CUUGAGGUAUUAAUUAAUCUCCGCAACCCAAAUUAUGAAAAUGGUGAUUCUCUUAGUUUUAGGACUCAUUUGGGUUUAAUCCAAGUUCCUCUGAAAGUAAAAGACAUCCCUGAAUUGAAA: 0.648 ratio
CACCCUAUAGAGGUAGUUGUCACACACACACACACACACACACACACACUGUUCACUUCCUAGCUCCUUUCCCCUCCACCUUUCUUUCAGAGUUUGUUCUCAUUUUUCAGAAUUCUUCUG: 3.25 ratio
UUACAGUCAUUGAUGGACUCUAUUUUUUUAUUAUUACUUGGACCUUGGUCGUUUUUAUACUAGCAAAAUGUCUUGUUUUAAUUUGUGUUUUUUGGGGGGAGGGAGGGAGUGAACUUGCUG: 9.02 ratio
AGAAUCUUGGGACUGUUUUACUUAAUUGGUCAUUGAUAGCUUAACAAACAUGGAGAUAAGAUUAGAAAUCUUGACAUCAACAGGUAUUAAGCAGAAAAAACCAUGGCCACGUGUCUCCUG: 0.126 ratio
GUUUUUUUUUUUUUUUUUUUUUUGCUGCUGACAUUGUAAUUAGCAUAUUCUCAACAGCAAUUAGGAAACAAUGCCUUAUAUAUGUGCUUUGGGGGGUUGAAGGGACAAAGUAGUAGCUGU: 0.962 ratio

Series 4
Target: Histone acetyltransferase KAT6A, winged helix 1, GST fusion (KAT6A, Homo sapiens, UniProt Q92794, residues 1-85)
Method: protein binding microarray
Form: double-stranded DNA, one strand shown
Matrix: in vitro
Concentration: not given
Notes: 8-mer, flanks averaged, mean of 2 arrays, mostly near background
Relative to: not given
Reading: higher = stronger binding
Endpoint: E-score
Target sequence (chain): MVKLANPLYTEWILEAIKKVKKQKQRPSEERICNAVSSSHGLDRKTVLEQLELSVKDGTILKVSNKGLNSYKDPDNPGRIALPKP
GAGTTCAC: -0.15
CCAGACAC: -0.319
CGCGGGTC: 0.416
AATGTAAC: -0.0444
GACAGAGA: -0.144
GGTTATTA: 0.0463
CATCTCTC: -0.0588
CTCTTAGC: 0.0548
AAGGCAGG: -0.0901
CTCCATAA: -0.221
GAATGTGA: -0.197
ACCCAAAC: -0.227
CTGGACGA: -0.16
ACGCTTGA: 0.0993
CGGCGCTC: 0.409
CCTAAAAC: -0.0118
ACTGCTTA: -0.144
ATATATTA: 0.0473
AGTACCAA: -0.121
AATGCACT: -0.11
ATCCTGAA: -0.126
CTTTGAGC: -0.0204
AGCCTATC: -0.139
AAAGAGGC: -0.121
CTTATCGA: 0.00697

Repeated from above (series 4):
GAATGTGA: -0.197
CTCCATAA: -0.221
AGCCTATC: -0.139
CATCTCTC: -0.0588
ACCCAAAC: -0.227
CTGGACGA: -0.16
CGCGGGTC: 0.416
CCAGACAC: -0.319
CTTATCGA: 0.00697
